Measurements collected from several papers.
Each line is one published result; not all experiments were run side by side. Values joined by “and” are separate records of one study, mostly repeats; a detail may differ. ± marks the error that the study gave.
ache: Acetylcholinesterase (ache, Electrophorus electricus, UniProt O42275)
Sequence of UniProt O42275 (whole entry, looked up): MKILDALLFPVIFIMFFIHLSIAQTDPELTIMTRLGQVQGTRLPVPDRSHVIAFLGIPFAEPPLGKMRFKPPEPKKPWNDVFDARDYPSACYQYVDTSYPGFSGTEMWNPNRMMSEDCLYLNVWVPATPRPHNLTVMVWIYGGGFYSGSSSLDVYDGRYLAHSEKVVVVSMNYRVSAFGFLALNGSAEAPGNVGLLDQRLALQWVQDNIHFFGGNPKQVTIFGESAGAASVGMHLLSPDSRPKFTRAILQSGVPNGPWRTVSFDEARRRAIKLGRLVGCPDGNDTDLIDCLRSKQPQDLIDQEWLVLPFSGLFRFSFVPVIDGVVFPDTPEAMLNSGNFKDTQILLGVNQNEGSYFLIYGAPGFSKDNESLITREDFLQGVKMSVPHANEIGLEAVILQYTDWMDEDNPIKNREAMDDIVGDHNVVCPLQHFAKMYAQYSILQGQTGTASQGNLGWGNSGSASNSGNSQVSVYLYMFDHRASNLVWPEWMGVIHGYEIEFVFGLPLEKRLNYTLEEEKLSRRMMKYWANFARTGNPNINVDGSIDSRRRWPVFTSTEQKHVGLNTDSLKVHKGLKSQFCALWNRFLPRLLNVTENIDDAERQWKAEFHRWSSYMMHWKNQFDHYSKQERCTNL
Sequence of UniProt Q9UM07 (whole entry, looked up): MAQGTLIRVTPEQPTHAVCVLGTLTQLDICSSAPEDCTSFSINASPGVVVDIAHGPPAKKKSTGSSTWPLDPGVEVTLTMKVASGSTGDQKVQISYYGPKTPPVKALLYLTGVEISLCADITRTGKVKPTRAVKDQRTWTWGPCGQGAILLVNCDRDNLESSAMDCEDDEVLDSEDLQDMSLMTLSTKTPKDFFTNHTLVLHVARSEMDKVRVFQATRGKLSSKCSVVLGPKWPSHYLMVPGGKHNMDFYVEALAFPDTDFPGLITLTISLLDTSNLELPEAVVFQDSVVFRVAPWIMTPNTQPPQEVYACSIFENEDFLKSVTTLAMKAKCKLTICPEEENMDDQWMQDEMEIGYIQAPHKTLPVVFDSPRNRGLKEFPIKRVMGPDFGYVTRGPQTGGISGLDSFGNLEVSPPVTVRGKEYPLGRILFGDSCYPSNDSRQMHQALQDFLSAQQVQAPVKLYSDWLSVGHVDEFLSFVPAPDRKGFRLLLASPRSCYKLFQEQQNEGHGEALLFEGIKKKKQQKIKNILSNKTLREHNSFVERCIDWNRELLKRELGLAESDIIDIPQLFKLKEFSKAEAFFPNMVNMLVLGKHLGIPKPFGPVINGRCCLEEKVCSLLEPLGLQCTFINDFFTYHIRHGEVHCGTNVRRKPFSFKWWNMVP
Sequence of UniProt P23458 (whole entry, looked up): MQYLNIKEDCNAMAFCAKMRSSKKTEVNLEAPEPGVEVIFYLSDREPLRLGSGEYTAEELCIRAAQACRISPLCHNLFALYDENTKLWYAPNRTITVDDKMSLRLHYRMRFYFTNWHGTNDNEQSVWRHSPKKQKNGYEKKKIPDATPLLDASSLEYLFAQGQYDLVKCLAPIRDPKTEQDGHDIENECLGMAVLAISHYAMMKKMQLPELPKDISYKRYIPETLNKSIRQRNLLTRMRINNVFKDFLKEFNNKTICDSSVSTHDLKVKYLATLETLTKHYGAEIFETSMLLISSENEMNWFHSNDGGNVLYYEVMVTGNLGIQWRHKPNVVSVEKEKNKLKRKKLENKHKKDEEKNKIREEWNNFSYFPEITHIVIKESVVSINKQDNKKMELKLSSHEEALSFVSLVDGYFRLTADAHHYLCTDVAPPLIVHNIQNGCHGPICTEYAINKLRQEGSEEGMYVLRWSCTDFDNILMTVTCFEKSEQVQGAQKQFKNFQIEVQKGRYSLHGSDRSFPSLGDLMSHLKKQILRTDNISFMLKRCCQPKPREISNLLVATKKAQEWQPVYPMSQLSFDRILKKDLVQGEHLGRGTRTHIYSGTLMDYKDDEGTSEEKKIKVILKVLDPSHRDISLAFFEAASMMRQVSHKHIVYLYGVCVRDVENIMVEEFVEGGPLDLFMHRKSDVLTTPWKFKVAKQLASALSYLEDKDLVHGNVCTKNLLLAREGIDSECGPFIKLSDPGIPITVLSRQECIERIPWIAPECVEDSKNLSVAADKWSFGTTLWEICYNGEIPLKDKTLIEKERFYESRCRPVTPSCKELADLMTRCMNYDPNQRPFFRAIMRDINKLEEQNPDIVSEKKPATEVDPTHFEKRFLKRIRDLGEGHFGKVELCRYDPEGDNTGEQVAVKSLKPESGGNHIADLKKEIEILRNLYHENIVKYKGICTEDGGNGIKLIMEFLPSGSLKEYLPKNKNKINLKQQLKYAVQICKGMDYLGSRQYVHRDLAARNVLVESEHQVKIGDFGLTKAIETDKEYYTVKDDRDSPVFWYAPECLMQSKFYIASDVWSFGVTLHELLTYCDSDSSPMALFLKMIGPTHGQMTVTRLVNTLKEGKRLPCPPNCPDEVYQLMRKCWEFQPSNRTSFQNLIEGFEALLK
Sequence of UniProt P09936 (whole entry, looked up): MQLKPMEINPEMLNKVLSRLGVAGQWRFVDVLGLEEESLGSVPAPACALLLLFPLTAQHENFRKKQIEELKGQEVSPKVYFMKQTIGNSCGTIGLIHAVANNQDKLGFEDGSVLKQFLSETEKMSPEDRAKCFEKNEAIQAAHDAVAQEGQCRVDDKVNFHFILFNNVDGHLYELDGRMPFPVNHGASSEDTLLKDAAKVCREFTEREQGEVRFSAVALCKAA
Sequence of UniProt Q704Y3 (whole entry, unmodified, looked up): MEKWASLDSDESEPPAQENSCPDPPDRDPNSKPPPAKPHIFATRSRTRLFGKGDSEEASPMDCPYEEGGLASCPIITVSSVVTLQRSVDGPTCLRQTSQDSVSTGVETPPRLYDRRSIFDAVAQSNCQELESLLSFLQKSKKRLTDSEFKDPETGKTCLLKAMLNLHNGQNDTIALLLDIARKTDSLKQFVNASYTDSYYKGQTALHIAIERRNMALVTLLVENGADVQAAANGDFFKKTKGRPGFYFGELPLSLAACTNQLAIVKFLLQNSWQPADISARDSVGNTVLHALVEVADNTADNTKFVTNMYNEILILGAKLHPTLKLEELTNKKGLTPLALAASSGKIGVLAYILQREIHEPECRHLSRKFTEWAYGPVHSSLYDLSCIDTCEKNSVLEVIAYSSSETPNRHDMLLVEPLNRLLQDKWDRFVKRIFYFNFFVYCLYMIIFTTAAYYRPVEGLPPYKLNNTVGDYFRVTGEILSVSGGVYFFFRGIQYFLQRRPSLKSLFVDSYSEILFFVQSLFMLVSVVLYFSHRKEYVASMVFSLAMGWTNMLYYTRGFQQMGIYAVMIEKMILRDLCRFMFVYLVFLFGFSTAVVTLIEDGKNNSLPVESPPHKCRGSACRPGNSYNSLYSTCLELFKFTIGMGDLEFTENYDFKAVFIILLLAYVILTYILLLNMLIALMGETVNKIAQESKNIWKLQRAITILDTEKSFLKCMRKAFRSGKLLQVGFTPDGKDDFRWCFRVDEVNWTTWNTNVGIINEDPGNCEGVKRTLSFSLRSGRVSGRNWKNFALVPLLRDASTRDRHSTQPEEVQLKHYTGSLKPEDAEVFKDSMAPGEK
Sequence of UniProt P36897 (whole entry, looked up): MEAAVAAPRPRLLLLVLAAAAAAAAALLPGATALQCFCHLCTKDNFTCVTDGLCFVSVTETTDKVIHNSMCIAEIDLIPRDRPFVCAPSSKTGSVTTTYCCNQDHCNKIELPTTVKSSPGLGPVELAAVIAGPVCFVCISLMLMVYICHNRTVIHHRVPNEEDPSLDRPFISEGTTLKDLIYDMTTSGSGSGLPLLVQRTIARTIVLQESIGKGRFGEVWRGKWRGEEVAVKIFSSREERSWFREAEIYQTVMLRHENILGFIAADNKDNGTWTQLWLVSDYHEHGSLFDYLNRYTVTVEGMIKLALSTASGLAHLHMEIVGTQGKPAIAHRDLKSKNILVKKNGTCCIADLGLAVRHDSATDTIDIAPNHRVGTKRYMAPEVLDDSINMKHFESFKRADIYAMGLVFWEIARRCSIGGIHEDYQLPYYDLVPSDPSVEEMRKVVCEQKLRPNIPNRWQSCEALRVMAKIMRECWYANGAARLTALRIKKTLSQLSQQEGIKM
Sequence of UniProt Q86Y07 (whole entry, looked up): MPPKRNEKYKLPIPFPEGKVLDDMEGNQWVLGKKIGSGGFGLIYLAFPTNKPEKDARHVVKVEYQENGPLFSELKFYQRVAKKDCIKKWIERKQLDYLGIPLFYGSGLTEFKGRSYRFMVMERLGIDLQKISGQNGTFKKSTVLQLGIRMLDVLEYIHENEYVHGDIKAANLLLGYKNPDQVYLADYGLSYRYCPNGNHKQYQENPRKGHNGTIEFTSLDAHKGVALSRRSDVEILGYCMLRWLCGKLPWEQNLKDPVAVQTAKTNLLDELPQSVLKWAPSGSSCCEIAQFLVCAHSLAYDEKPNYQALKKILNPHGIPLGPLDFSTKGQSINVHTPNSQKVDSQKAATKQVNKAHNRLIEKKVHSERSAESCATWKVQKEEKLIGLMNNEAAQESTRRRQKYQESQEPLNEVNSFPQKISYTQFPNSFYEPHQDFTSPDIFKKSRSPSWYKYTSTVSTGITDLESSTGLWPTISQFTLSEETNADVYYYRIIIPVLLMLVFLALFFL
Sequence of UniProt O00238 (whole entry, looked up): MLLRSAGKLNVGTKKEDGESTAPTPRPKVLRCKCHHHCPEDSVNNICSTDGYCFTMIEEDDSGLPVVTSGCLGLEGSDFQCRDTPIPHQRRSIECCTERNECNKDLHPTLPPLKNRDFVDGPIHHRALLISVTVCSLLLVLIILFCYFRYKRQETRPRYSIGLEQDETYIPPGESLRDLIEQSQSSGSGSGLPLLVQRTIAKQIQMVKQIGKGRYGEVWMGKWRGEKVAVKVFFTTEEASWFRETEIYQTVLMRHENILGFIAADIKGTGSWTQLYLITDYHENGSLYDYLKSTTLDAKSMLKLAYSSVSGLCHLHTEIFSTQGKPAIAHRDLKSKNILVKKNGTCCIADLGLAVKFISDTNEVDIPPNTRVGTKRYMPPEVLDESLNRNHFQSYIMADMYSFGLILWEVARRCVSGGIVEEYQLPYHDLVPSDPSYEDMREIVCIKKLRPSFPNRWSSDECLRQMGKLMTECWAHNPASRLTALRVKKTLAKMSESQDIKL

For `Cc1ccc(N2CC3CCC(C2)N3C)cc1C(=O)N[C@H](C)c1cc(-c2cnn(C)c2)nc2ccccc12`, the remaining activity was 101% (Ubiquitin carboxyl-terminal hydrolase isozyme L1 (UCHL1, Homo sapiens, UniProt P09936); enzyme activity; 10 µM, 0.5 h).
`CCOC(=O)[C@@H]1Cc2c(cc([N+](=O)[O-])cc2[N+](=O)[O-])[C@H](O)[C@]12C(=O)Nc1ccc(Br)cc12` gave a remaining binding of 100% (TGF-beta receptor type-1 (TGFBR1, Homo sapiens, UniProt P36897); binding, competition with immobilised ligand; 0.1 µM).
For `O=C(Cc1ccc(Cl)c(Cl)c1)N1CCN(CC2CC2)[C@@H]2COC[C@H](N3CCCC3)[C@H]21` (relative stereo), the Emax was 101% (Kappa-type opioid receptor (OPRK1, Homo sapiens, UniProt P41145); agonist; 0.3333 h).
Under activity, `CCc1nc2ccc(C(=O)NCCOc3ccc(OC)cc3)cn2c1N(C)Cc1ccc(OC)cc1` is recorded as “active” (ache; inhibitor; 5 µM).
`O=C(O)C(/C=C/c1ccc(Cl)cc1)=N\Nc1nc(-c2ccc(Br)cc2)cs1` gave a selectivity index of 52 (ache; Ellman; baseline: IC50 BChE over IC50 AChE).
For `CS(C)(=O)=Nc1ccc(-c2ccc(-c3nc4cc(O[C@@H]5CO[C@H]6[C@@H]5OC[C@H]6O)[nH]c4cc3F)cc2)cc1`, the inhibition was -13% (Bone morphogenetic protein receptor type-1B (BMPR1B, Homo sapiens, UniProt O00238); enzyme activity, inhibitor; 10 µM).
With `CN(C)[C@H]1C[C@@]23CC[C@@]4(O2)C(=CC[C@]2(C)[C@@H](c5ccc6ccncc6c5)CC[C@H]24)C=C3[C@@H](O)[C@@H]1O` the inhibition was -15.9% (Serine/threonine-protein kinase VRK2 (VRK2, Homo sapiens, UniProt Q86Y07); ATP probe labelling, inhibitor, KiNativ profiling; 1 µM).
With `CC(C)[C@H]1NC(=O)C[C@H]2/C=C/CCSSC[C@@H](NC1=O)C(=O)N[C@H](Cc1cccc3ccccc13)C(=O)NCC(=O)O2` the inhibition was 10.2% (Protein-tyrosine kinase 6 (PTK6, Homo sapiens, UniProt Q13882); enzyme activity, inhibitor; 10 µM).
The remaining activity of `O=C1NC(=O)c2c1c1cc(F)c[n+]3c1c1c2c2cc(O)ccc2[n]1[Ru-4]312([N]=C=S)[S+]3CC[S+]1CC[S+]2CC3` (stereo not drawn) is reported as 117% (Ephrin type-B receptor 1 (EPHB1, Homo sapiens, UniProt P54762); enzyme activity; 100 nM, human enzyme, together with: 10 µM ATP; baseline: untreated).
The Hill coefficient of `CCCCC/C=C\C/C=C\C/C=C\C/C=C\CCCC(=O)NCCc1ccc(O)c(O)c1` is reported as 1.28 ± 0.1 (Transient receptor potential cation channel subfamily V member 1 (Trpv1, Mus musculus, UniProt Q704Y3, S513A); ion current, agonist, whole-cell patch clamp).
`N[C@H](C(=O)N1CCCC1)C1CCN(c2nccc3c(-c4ncc(Cl)cc4Cl)cccc23)CC1` has a kcat of 0.0259 s⁻¹ and 0.0397 s⁻¹ (Protein-arginine deiminase type-4 (PADI4, Homo sapiens, UniProt Q9UM07); enzyme activity; 3.84 µM, low-affinity site, together with: Ca2+ 0.25 mM).
The remaining binding of `O=C(N[C@@H]1c2ccccc2C[C@H]1N1CCCC1)c1ccc(-c2ccnc3[nH]ccc23)nc1` is reported as 0% (Tyrosine-protein kinase JAK1, JH1 (JAK1, Homo sapiens, UniProt P23458); binding, competition with immobilised ligand; 3 µM).

Repeated from above:
`CCOC(=O)[C@@H]1Cc2c(cc([N+](=O)[O-])cc2[N+](=O)[O-])[C@H](O)[C@]12C(=O)Nc1ccc(Br)cc12` gave a remaining binding of 100% (TGF-beta receptor type-1 (TGFBR1, Homo sapiens, UniProt P36897); binding, competition with immobilised ligand; 0.1 µM).
